Results gathered from unrelated publications.
Each line is one published result; not all experiments were run side by side. ± marks the error that the study gave.
CNR2: Cannabinoid receptor 2 (CNR2, Homo sapiens, UniProt P34972)
Chain of UniProt P34972 (whole entry, unmodified, looked up): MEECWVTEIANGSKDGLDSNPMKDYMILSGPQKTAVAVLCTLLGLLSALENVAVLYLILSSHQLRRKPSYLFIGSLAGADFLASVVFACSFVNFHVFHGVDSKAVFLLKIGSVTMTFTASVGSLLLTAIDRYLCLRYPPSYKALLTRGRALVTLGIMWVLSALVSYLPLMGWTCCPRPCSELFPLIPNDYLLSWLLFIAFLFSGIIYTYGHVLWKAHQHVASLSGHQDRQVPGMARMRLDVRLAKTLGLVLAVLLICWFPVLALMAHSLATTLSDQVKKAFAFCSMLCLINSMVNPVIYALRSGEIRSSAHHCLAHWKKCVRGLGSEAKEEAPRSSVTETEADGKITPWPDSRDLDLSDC

`CC1(Cc2ccccc2)COc2cc(C(=O)N3CCCCC3)ccc21` (stereo not drawn) has an EC50 of 128 nM (CNR2; GTPγS binding, agonist; cell membranes).
The IC50 of `CCC(=C(c1ccc(OCCN2CCCC2)cc1)c1ccc(OCCN2CCCC2)cc1)c1ccccc1` is reported as 134 ± 397 nM (CNR2; adenylyl cyclase activity, inverse agonist; CHO expressing human CB2; added: forskolin 10 µM).
With `CC1(C)Oc2cc([C@]34CC5CC(C[C@@](CN=[N+]=[N-])(C5)C3)C4)cc(O)c2[C@@H]2C[C@H](O)CC[C@H]21` the EC50 was > 3000 nM (CNR2; cAMP inhibition, agonist; HEK293 expressing hCB2; added: forskolin).
`CCC/C=C/CC1(C)COc2cc(C(=O)N3CCCCC3)ccc21` (stereo not drawn) gave an EC50 of 48.9 nM (CNR2; GTPγS binding, agonist; cell membranes).
For `CCCCC/C=C\C/C=C\C/C=C\C/C=C\CCCC(=O)OC(CO)CO`, the EC50 was 1350 nM (Cannabinoid receptor 2 (CNR2, Homo sapiens, UniProt P34972, Q63R); β-arrestin 2 recruitment, agonist, BRET; HEK293 coexpressing GRK3).
The Ki of `CN1CCCCC1Cn1cc(C(=O)c2ccccc2I)c2ccccc21` (stereo not drawn) is reported as 9.2 nM (CNR2; ligand displacement, radioligand).
`COc1ccc(C(=O)c2c(C)n(CCN3CCOCC3)c3cc(I)ccc23)cc1` has an IC50 of 12.3 ± 2.47 nM (CNR2).
For `O=C1/C(=C/c2cn(Cc3ccc(Cl)cc3)c3ccccc23)N2CCC1CC2`, the IC50 was 7.5 ± 1.8 nM (CNR2; cAMP level, agonist; CHO expressing human CB2; added: 10 µM forskolin).
For `CCCCCn1cc(C(=O)C23CC4CC(CC(C4)C2)C3)c2ccccc21`, the IC50 was 1700 ± 863 nM (CNR2).
With `CC(C)(CCCCCCN=C=S)c1cc(O)c2c(c1)OC(C)(C)C1CCC(CO)CC21` (single isomer, unassigned; (-)) the Ki was 4.5 nM (CNR2; ligand displacement, radioligand).
For `Cc1c(C(=O)NN2CCS(=O)(=O)CC2)nn(-c2ccc(Cl)cc2Cl)c1-c1ccc(C#CCCC#N)cc1`, the IC50 was 1300 ± 670 nM (CNR2).
With `CCCCCCCCCCCCC/C=C/CCC(=O)N[C@H](CO)COC` the EC50 was 1800 nM (CNR2; cAMP, agonist).

Repeated from above:
`COc1ccc(C(=O)c2c(C)n(CCN3CCOCC3)c3cc(I)ccc23)cc1` has an IC50 of 12.3 ± 2.47 nM (CNR2).
For `O=C1/C(=C/c2cn(Cc3ccc(Cl)cc3)c3ccccc23)N2CCC1CC2`, the IC50 was 7.5 ± 1.8 nM (CNR2; cAMP level, agonist; CHO expressing human CB2; added: 10 µM forskolin).
